Measurements pooled from the literature.
Values joined by “and” are separate records of one study, mostly repeats; a detail may differ. ± marks the error that the study gave.
UniProt P45984, sequence (whole entry, looked up): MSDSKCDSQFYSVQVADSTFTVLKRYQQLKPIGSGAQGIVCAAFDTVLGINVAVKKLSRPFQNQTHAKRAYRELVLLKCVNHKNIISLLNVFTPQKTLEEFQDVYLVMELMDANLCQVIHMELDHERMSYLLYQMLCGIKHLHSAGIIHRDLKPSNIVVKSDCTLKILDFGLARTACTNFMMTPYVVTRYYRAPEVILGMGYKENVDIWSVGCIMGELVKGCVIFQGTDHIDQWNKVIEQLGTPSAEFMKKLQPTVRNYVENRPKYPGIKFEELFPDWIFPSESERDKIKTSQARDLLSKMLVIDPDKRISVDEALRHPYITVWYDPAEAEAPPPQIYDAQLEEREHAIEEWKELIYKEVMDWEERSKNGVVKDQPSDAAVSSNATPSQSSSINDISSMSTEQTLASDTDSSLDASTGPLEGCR
UniProt Q86YB8, sequence (whole entry, looked up): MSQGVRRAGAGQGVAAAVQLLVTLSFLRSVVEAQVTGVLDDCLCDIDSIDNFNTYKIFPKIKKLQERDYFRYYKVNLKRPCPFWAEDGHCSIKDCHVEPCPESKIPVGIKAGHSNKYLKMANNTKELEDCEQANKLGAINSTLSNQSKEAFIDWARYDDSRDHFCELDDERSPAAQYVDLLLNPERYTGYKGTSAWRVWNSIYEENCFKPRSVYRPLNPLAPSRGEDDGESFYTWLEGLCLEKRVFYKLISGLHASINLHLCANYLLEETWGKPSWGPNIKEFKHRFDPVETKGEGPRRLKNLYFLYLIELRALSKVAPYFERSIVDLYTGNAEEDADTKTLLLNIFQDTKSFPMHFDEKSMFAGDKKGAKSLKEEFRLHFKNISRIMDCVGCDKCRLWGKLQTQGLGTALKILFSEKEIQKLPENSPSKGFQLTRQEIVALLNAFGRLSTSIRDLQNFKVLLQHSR
UniProt Q05097, sequence (whole entry, looked up): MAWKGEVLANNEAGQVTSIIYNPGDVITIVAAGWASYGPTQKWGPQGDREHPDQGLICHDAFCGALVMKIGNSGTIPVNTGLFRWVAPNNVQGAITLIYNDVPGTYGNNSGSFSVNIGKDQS
UniProt P19643, sequence (whole entry, looked up): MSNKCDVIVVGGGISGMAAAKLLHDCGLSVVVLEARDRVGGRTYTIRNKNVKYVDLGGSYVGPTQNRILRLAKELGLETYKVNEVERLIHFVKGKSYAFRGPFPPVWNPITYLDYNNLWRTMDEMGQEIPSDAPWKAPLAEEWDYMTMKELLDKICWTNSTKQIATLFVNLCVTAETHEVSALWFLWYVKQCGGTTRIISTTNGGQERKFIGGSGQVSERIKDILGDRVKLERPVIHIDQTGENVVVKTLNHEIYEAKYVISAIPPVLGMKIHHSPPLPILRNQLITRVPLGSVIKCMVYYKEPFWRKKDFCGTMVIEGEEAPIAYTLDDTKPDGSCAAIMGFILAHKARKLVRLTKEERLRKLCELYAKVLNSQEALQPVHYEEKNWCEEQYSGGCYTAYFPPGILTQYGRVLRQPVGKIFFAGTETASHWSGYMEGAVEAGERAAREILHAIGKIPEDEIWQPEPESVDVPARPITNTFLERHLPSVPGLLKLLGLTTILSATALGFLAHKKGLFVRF
UniProt Q08499, sequence (whole entry, looked up): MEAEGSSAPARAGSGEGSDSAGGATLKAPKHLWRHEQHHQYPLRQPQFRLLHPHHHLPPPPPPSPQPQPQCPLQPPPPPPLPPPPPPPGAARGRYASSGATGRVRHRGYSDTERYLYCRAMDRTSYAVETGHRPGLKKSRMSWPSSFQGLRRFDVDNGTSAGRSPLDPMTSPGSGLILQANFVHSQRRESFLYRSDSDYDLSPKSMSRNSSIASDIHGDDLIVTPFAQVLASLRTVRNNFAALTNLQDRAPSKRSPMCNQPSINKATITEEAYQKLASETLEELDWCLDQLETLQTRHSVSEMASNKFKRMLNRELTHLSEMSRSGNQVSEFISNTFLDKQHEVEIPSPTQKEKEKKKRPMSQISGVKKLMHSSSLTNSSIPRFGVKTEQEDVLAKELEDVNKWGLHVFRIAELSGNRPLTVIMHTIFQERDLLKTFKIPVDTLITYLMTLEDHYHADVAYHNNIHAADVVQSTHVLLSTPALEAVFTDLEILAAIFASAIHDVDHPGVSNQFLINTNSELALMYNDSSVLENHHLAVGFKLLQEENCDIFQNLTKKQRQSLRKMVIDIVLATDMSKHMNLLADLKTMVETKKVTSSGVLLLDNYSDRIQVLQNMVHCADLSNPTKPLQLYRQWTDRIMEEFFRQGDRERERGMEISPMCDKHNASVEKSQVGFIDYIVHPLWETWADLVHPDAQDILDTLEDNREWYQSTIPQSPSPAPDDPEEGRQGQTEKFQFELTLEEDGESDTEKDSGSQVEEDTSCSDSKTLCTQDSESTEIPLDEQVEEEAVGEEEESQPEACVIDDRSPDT
UniProt Q99873, sequence (whole entry, looked up): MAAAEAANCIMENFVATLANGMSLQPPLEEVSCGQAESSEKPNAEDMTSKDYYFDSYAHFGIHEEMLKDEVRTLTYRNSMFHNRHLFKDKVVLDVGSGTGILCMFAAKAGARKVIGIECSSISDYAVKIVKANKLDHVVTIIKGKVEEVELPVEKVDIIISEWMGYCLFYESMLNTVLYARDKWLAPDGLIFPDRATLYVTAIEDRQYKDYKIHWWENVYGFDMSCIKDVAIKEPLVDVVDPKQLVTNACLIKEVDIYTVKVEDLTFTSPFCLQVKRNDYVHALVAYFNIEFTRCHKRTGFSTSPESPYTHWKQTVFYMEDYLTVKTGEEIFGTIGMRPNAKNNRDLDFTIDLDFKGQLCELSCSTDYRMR
UniProt P30101, sequence (whole entry, looked up): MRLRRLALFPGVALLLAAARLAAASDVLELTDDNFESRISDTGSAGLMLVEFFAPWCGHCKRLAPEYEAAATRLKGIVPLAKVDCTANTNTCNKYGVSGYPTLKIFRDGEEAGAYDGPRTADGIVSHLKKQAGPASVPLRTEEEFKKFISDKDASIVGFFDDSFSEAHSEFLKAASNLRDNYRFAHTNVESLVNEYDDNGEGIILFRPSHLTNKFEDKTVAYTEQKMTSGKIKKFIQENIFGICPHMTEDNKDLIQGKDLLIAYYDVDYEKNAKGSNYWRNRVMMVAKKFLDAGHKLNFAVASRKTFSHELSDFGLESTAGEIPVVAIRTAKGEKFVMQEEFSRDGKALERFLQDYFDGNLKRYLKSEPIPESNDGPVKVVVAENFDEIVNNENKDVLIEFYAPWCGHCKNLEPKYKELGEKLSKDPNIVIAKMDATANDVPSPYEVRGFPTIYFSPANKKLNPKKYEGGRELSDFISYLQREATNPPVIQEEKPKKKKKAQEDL
UniProt Q01650, sequence (whole entry, looked up): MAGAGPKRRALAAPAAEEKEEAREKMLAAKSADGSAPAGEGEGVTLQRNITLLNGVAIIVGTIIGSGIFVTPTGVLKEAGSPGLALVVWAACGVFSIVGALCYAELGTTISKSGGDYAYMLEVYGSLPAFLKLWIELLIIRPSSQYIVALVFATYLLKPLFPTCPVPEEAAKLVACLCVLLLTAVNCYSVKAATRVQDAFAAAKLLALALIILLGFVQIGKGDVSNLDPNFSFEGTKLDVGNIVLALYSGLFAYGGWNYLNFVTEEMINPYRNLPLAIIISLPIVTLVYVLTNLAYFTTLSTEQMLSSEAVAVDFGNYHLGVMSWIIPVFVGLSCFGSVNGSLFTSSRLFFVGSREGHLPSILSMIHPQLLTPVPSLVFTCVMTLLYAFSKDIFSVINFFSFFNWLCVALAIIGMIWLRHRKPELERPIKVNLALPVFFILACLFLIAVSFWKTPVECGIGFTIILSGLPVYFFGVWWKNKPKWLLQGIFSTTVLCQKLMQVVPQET
UniProt Q8IXJ6, sequence (whole entry, looked up): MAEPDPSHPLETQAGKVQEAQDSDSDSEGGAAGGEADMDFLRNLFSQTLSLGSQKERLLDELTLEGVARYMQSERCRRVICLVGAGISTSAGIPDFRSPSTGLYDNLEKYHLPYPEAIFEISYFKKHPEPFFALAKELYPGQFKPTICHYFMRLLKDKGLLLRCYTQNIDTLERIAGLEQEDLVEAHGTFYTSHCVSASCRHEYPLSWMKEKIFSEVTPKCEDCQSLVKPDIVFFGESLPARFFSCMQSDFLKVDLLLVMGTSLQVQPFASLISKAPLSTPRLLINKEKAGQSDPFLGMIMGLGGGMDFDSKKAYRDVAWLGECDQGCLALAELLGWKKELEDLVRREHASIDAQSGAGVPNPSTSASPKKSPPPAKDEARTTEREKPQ
UniProt P28074, sequence (whole entry, looked up): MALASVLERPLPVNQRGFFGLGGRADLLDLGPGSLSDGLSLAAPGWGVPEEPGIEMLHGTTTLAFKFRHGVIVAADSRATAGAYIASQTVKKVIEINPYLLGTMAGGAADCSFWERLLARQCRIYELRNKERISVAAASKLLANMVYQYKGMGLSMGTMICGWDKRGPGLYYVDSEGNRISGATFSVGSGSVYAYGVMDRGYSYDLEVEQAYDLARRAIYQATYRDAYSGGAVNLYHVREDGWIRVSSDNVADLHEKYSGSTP
UniProt Q9BV86, sequence (whole entry, looked up): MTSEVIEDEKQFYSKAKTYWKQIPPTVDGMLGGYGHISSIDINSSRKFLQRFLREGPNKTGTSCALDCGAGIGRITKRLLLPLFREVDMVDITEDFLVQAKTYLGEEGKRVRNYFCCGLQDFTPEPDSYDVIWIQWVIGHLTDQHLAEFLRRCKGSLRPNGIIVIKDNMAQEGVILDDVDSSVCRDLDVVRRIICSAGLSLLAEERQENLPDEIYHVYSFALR

COc1ccc(C(=O)/C=C/c2ccc(O)cc2)c(O)c1CC=C(C)C
IC50 (Maob (Rattus norvegicus, UniProt P19643); inhibitor): 3430 nM

N=C(N)NCCCC(N)C(=O)NCC(=O)NC(CCCCNC(=N)NCCSCC1OC(n2cnc3c(N)ncnc32)C(O)C1O)C(N)=O (centres unmarked)
IC50 (N-terminal Xaa-Pro-Lys N-methyltransferase 1 (Homo sapiens, UniProt Q9BV86); enzyme activity, inhibitor, fluorescence): > 100000 nM

Nc1nc(Cl)nc2c1ncn2Cc1cc(OCC(F)F)cc(OC(F)F)c1
IC50 (PDE4D (Homo sapiens, UniProt Q08499); enzyme activity, inhibitor): 5490 nM

Cc1ccc2oc(-c3c4c(N)n[nH]c(=O)c4nn3-c3ccc(NC(=O)/C=C/CN(C)C)cc3)c(C)c2c1
IC50 (PDGFRA (Homo sapiens, UniProt P16234); enzyme activity, inhibitor, ELISA): > 1000 nM

CN(C)C/C=C/C(=O)Nc1ccc2nc(NCCCCCN(C)C)nc(NCCCCCCN(C)C)c2c1
IC50 (PRMT1 (Homo sapiens, UniProt Q99873); enzyme activity, inhibitor, radiometric): 1300 nM

O=C(COc1ccc(F)cc1)N[C@@H](Cc1cn(CCNC(=O)c2ccc(S[C@@H]3O[C@H](CO)[C@H](O)[C@H](O)[C@H]3O)cc2)nn1)C(=O)NCCO
IC50 (lecA (Pseudomonas aeruginosa, UniProt Q05097); ligand displacement, FP): 58300 nM

NC1(Cc2ccc(Cl)cc2)CCN(c2ncnc3[nH]ccc23)CC1
IC50 (Trpm7 (Mus musculus, UniProt Q923J1); calcium signal): 1420 nM

N[C@@H](Cc1c[nH]c2ccc(OCc3ccccc3-c3ccccc3)cc12)C(=O)O
IC50 (SLC7A5 (Homo sapiens, UniProt Q01650); transporter uptake, inhibitor, radiometric): 8000 nM

Cc1cc(C)nc(SCC(=O)Nc2ncc(Cc3cccc(OCc4cn(Cc5ccc(C#N)cc5)nn4)c3)s2)n1
IC50 (SIRT2 (Homo sapiens, UniProt Q8IXJ6); inhibitor): 1100 ± 200 nM

C=C(NC(=O)C(=C)NC(=O)c1csc(C2=NC3c4csc(n4)C4NC(=O)c5csc(n5)C(C(C)(O)C(C)O)NC(=O)C5CSC(=N5)C(=CC)NC(=O)C(C(C)O)NC(=O)c5csc(n5)C3(CC2)NC(=O)C(=CC)NC(=O)C(=C)NC(=O)C(C)NC(=O)C(C(C)CC)NC2C=Cc3c(C(C)O)cc(nc3C2O)C(=O)OC4C)n1)C(N)=O (centres unmarked)
IC50 (PSMB5 (Homo sapiens, UniProt P28074); chymotrypsin-like activity, inhibitor; purified 20S proteasome; 15 min preincubation, 37 °C, with: Suc-Leu-Leu-Val-Tyr-AMC substrate): 250 ± 20 nM

Cn1cnnc1Sc1c2c(c(C#N)c3nc4ccccc4n13)CCCC2
IC50 (ERO1-like protein beta (ERO1B, Homo sapiens, UniProt Q86YB8); enzyme activity, inhibitor): 7200 nM

CC(C)C[C@H](NC(=O)[C@H](CC(N)=O)NC(=O)[C@H](CC(C)C)NC(=O)[C@@H](NC(=O)[C@@H](NC(=O)[C@@H]1CCCN1C(=O)[C@H](CCCNC(=N)N)NC(=O)[C@H](CCCCN)NC(=O)[C@@H]1CCCN1)[C@@H](C)O)[C@@H](C)O)C(=O)N[C@@H](Cc1ccccc1)C(=O)NCCCCCC(=O)N[C@@H](CCCNC(=N)N)C(=O)N[C@@H](CCCNC(=N)N)C(=O)N[C@@H](CCCNC(=N)N)C(=O)N[C@@H](CCCNC(=N)N)C(=O)N[C@@H](CCCNC(=N)N)C(=O)N[C@@H](CCCNC(=N)N)C(=O)N[C@@H](CCCNC(=N)N)C(=O)N[C@@H](CCCNC(=N)N)C(=O)N[C@@H](CCCNC(=N)N)C(N)=O
IC50 (MAPK9 (Homo sapiens, UniProt P45984); enzyme activity, inhibitor): ~90 nM and 89 nM

CN(C)C(=O)C1CN1S(=O)(=O)c1cccc2cc(N(C)C)ccc12 (centres unmarked)
IC50 (PDIA3 (Homo sapiens, UniProt P30101); enzyme activity, inhibitor, absorbance; pH 7.6): 4800 nM

Cc1ccc(-c2c(/C=C(\C#N)C(=O)NC(C)C)n(CCCO)c3ncnc(N)c23)cc1
IC50 (Ribosomal protein S6 kinase alpha-3, C-terminal kinase domain (Rps6ka3, Mus musculus, UniProt P18654); enzyme activity, inhibitor; with: glutathione 10 mM pretreatment): 4 nM

Excerpt of the above:
Cn1cnnc1Sc1c2c(c(C#N)c3nc4ccccc4n13)CCCC2
IC50 (ERO1-like protein beta (ERO1B, Homo sapiens, UniProt Q86YB8); enzyme activity, inhibitor): 7200 nM
